Experimental data pooled from the literature.
A part holds a random share of what one study measured. Positions count from the first letter of the parent shown.

Series 1
Target: UBE2L6 UBC core domain (UniProt O14933)
Method: yeast two-hybrid
Sample: yeast
Setting: mostly zero background
Reference: not given
Direction: higher = stronger interaction
B1: TRIM22 RING domain (UniProt Q8IYM9); chain KEVKMSPQEGQKRDVCEHHGKKLQIFCKEDGKVICWVCELSQEHQGHQTFRINEVVKECQEK
B2: RNF135 RING domain (UniProt Q8IUD6); chain PVWLAEDDLGCIICQGLLDWPATLPCGHSFCRHCLEALWGARDARRWACPTCRQGAAQQPHLR
B3: TRIM48 RING domain (UniProt Q8IWZ4); chain ISQVFQRELTCPICMNYFIDPVTIDCGHSFCRPCFYLNWQDIPILTQCFECIKTIQQRNLKT
B4: DTX1 RING domain (UniProt Q86Y01); chain QKVKNPPDEDCTICMERLVTASGYEGVLRHKGVRPELVGRLGRCGHMYHLLCLVAMYSNGNKDGSLQCPTCKAIYGEKTGTQ
Target sequence (chain): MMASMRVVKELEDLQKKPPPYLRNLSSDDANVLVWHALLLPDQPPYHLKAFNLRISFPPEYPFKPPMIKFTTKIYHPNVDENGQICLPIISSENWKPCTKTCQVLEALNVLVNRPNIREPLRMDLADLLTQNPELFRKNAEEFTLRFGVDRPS
Sequence	lacZ reporter activity
KLWDINAHITCRLCSGYLIDATTVTECLHTFCRSCLVKYLEENNTCPTCRIVIHQSHPLQ (PCGF3 RING domain (UniProt Q3KNV8))	0
QLRRLQEERTCKVCLDRAVSIVFVPCGHLVCAECAPGLQLCPICRAPVRSRVRTF (BIRC7 RING domain (UniProt Q96CA5))	0
KEQLEKHNDICAICYQDMKSAVITPCSHFFHAGCLKKWLYVQETCPLCHCHLKNSSQLP (RNF145 RING domain (UniProt Q96MT1))	0
B1 (TRIM22 RING domain)	0
B2 (RNF135 RING domain)	0
NTAPSLTVPECAICLQTCVHPVSLPCKHVFCYLCVKGASWLGKRCALCRQEIPEDFLDK (RNF146 RING domain (UniProt Q9NTX7))	0
B3 (TRIM48 RING domain)	0
B4 (DTX1 RING domain)	0

Series 2
Target: Interferon regulatory factor 7, full length, phosphomimetic (IRF7, Homo sapiens, UniProt Q92985, residues 1-503, S471D/S472D/S475D/S476D/S477D/S483D/S484D/S487D)
Method: protein-binding microarray
Molecule type: double-stranded DNA, one strand shown
Sample: in vitro
Tested at: 2200 nM top
Setting: 60-bp whole probe
Added: salmon DNA 0.4 mg/ml
Reference: random background probes
Direction: higher = stronger binding
Constant ends, left off below: GCCTAGCAC … GTCTTGATTCGCTTGACGCTGCTG
Target sequence (chain): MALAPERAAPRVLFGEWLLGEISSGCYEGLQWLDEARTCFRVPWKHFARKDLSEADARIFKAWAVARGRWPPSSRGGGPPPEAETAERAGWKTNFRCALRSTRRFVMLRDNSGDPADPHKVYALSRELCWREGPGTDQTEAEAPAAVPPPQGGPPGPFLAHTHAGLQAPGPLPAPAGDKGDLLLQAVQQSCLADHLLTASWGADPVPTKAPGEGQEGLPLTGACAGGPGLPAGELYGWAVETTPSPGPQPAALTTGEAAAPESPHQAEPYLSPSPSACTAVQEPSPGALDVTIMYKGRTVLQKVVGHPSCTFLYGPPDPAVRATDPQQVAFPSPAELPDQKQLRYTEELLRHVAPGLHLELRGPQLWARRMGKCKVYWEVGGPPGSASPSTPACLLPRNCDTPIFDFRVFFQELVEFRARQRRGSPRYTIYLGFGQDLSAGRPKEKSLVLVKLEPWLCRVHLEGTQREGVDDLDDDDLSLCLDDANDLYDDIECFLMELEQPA
Sequence	fitted relative affinity [z-score]
GACGGTTTCGACGTTCGGGACGTGCTA	2.38
ATTTTTTTCTAATTGAAATGGTGCTAG	1.49
GACGGTATCGGGACTGGGTACGTGCTA	-0.399
AGACCTTCACCTCTCTGTCCGTGCTAG	1.52
TTAGGTATCGGGTTTCGGTTGGTGCTA	5.15
TTAGAACTGAGGCTGGATTAGTGCTAG	-0.728
AACGATATCGGGACTGGAGACGTGCTA	0.142
GAGGGTTTCGGGTATCGGGACGTGCTA	3.47
TTAGTTATCAGTTTCGATTAGTGCTAG	6.31
TTAGGTTTCGGGACTGCGTTAGTGCTA	3.19
TTAGGACTGGGGTCTGGGTTAGTGCTA	-0.853
GACAGACTGGGTCTCGGGACGTGCTAG	-0.537
TTAGGTATCGACAGTGGGTTAGTGCTA	-0.205
TTAGGTCTCCTTATCTTTTAGTGCTAG	0.641
CTGGCTATTTTATATGCTATGGTGCTA	-0.104

Series 3
Target: ABI1, truncated, D143A, DHFR fusion (Arabidopsis thaliana)
Method: DHFR PCA, deep sequencing
Sample: yeast
Setting: methotrexate growth selection, single substitutions
Added: (+)-ABA 200 µM
Reference: wild-type fitted maximum
Direction: higher = stronger binding
Starting sequence: PYL1, truncated, DHFR fusion (Arabidopsis thaliana); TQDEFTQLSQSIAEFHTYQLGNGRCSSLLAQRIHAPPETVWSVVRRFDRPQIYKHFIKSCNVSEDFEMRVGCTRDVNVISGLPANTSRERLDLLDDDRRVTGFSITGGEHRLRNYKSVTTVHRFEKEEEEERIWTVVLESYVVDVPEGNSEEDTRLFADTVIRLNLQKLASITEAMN; partner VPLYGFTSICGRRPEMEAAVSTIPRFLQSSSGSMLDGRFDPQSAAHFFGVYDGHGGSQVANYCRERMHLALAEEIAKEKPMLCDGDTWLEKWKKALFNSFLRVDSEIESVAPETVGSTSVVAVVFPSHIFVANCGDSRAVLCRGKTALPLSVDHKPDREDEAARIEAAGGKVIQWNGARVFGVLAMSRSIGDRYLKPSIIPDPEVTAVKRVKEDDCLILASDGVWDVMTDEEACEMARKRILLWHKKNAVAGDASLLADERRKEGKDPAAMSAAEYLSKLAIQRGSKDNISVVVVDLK
Change	relative binding score [%]
G71D	70.2
R32A	82
I105S	90.2
S150W	38.5
I162Q	-1.73
L166G	-4.22
G23K	97.8
I12P	21.6
A84S	63.1
V40Q	-31.7
D95K	55.1

Series 4
Target: RNA binding protein fox-1 homolog 2, RRM domain, GST-SBP tag (RBFOX2, Homo sapiens, UniProt O43251-10, residues 100-194)
Method: RNA Bind-n-Seq
Molecule type: RNA
Sample: in vitro
Tested at: 365 nM
Setting: natural RNA segment, single round, ends assumed
Reference: no-protein control
Direction: higher = stronger binding
Constant ends, left off below: GGGAGUUCUACAGUCCGACGAUC … UGGAAUUCUCGGGUGCCAA
Residues (chain): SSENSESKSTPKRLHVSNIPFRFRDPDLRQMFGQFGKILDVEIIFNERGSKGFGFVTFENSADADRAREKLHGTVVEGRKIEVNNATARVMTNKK
Sequence	RBNS enrichment (R)
GAUCUCUGAAGUUUAGUAUUUUUGCACUAUGACAAUUGCUAAGACUGGGAUUUUAAGCUAGGAUAUGAUUAUAUUUCCUAUAAAACUAAAACUUUUAUUUCAUAAAUUUU	0.885
GUACCUGUGGAUUUUCCAAUAGUGAGGGUUAGCUCUGCCUCCAGGGCCCGCUAAGUUCUGCUGAGCAGGCCUGUCCACGCUGUUCCUUACCGGUGAGACUGGGCUUGGAC	0.408
GAAGAUCUGUCGAUUCAUCUCCAAUCAUAUGCAUUGACAUACACAGCAAAGAAGAUAUAGGCAGUAAUAUCAACACUGCUAUAUCAUGUGUAGGACAUUUCUUAUCCAUU	0.418
CCAGCUUAGUCAGAAGAUGGUUCCAUGGAAGAAAAAGGCCAAGGAGUUUGAAGAUUUUUCUUCUAGACAUCUCAAAAUGUGGUACUCAUACCAUCCACAUCAGAAUCCCU	0.518
CUCAGCCUUCUUGACUAGGUGGCCAGCCUGUUUCACUGCAGCCUCAGACCUUGCCAGACAACCGAGUCCUGCAGGAUUCUGACUCAGAAGAUAAUCACAGACGUUAGUUA	0.274
UCACUAAAUGUUUGUUUUUGCUCAUCUCUUUCUGAGGUCAUCUGCAGAGAGUGCCCCAUGCCUUCUUUAAGAAGUCCCUCAUUAAGCCGCAGGAACAAUGGAAAACUAUU	0.313
GGACGCAGGGAGUCUGGCUAGCGUUAAUAGGAAAGGUUGCUCGGCAGAGCUGCCCUGGAGUACUGACUUGUCUCUCCCUCCUUUGUCAAGGUCCAUGUUUUUCUGGCUCU	0.28
ACCCUCCUUUUUUUCCCUAUCACUGAAGCUUUUUAGUGCAUUAGUGGGGAGGAGGGUGGGGAGACAUAACCACUGCUUCCAUUUAAUGGGGUGCACCUGUCCAAUAGGCG	0.257
